Published values pooled from the literature.
± marks the error that the study gave.

Compound	cell line	test	system	conditions	scale	quantity	value
CN(C)C(=O)C1CN1S(=O)(=O)c1ccc2c(C=O)c(N(C)C)ccc2c1 (stereo not drawn)	Balb/c 3T3 fibroblasts	cytotoxicity, neutral red uptake	DMEM with 5% FBS	24 h	–	IC50	5 ± 0.7 µM
CNC(=O)C(NC(=O)C(O)(Cc1ccccc1)CN(Cc1ccc(Br)cc1)NC(=O)C(NC(=O)OC)C(C)(C)C)C(C)(C)C (stereo not drawn)	Caco-2	–	–	pH 7.4, 1% BSA in receiver	–	Papp A-to-B	2.5 ± 0.1 ×10⁻⁶ cm/s
CC(C)=CCc1cc(-c2coc3cc(O)c(CC=C(C)C)c(O)c3c2=O)ccc1O	RAW264.7	cell growth or viability, MTT	–	100 µg/mL, 24 h	–	viability	5.55%
COC(=O)C1CN1S(=O)(=O)c1ccc2cc(OC)ccc2c1 (stereo not drawn)	Balb/c 3T3 fibroblasts	cytotoxicity, neutral red uptake	DMEM with 5% FBS	24 h	–	IC50	150 ± 8 µM
C=C1C(=O)OC2C1CCC1(C)CC1CCC1(C)OC21 (stereo not drawn)	human bone marrow cells	Annexin V/7-AAD flow cytometry	–	25 µM, 12 h	baseline: untreated	viability reduction	22 to 26%
CC(C)[C@H](NC(=O)OC(C)(C)C)C(=O)OC1CCC2(C)C(C(O)CC3(C)C2CC(O)C2C(C4(C)CCCC(C)(C)O4)CCC23C)C1(C)C (stereo partly drawn)	Hep3B	cell growth or viability, MTT	–	24 h	–	IC50	> 30 µM
N=C(N)NCCC[C@@H]1NC(=O)[C@H](CCCNC(=N)N)NC(=O)[C@H](CCCNC(=N)N)NC(=O)[C@H](Cc2c[nH]c3ccccc23)NC(=O)[C@H](Cc2ccc3ccccc3c2)NC(=O)[C@H](Cc2ccc3ccccc3c2)NC(=O)[C@H](CCCNC(=N)N)NC1=O	human red blood cells	hemolysis	–	–	–	HC50	105 µg/mL
CNC(=S)Nc1cccc([N+](=O)[O-])c1	MDCK	–	–	at solubility limit	–	cytotoxicity	not toxic
CC(C)(C)OC(=O)N[C@@H](Cc1c[nH]c2ccccc12)C(=O)OC1CCC2(C)C(C(O)CC3(C)C2CC(O)C2C(C4(C)CCCC(C)(C)O4)CCC23C)C1(C)C (stereo partly drawn)	Hep3B	cell growth or viability, MTT	–	24 h	–	IC50	> 30 µM
CC(=O)N[C@H](C(=O)N[C@H](C(=O)N[C@@H](CCCNC(=N)N)C(=O)N1Cc2ccccc2C[C@H]1C(=O)N[C@@H](Cc1ccccc1)C(N)=O)C1CCCCC1)C(C)C	human PBMC	Bio-Plex multiplex, refers to: IL-7	–	250 µg/mL, 24 h	–	cytokine level	0.3 ± 0.5 pg/mL
Nc1ncnc2c1ccn2[C@H]1C[C@H](O)[C@@H](CO)O1	MRC-5 SV2	cytotoxicity, resazurin	medium with 5% FBS	72 h	–	EC50	> 64 µM
O=C1OC2(c3ccccc31)c1cc(I)c(O)c(I)c1Oc1c2cc(I)c(O)c1I	3D forebrain organoid	morphology	–	3.0 µM	–	toxicity	not toxic
Cc1nc(C)c(C=[N+]([O-])C(C)(C)C)nc1C	Sprague-Dawley rat primary midbrain neurons	–	–	300 µM, 24 h	baseline: untreated	viability	97.8 ± 3.93%
CC1(C)CCCC(C)(C2CCC3(C)C2C(O)CC2C4(C)CCC(OC(=O)/C=C\c5ccc(Cl)cc5)C(C)(C)C4C(O)CC23C)O1 (stereo not drawn)	Hep3B	cell growth or viability, MTT	–	24 h	–	IC50	> 30 µM
COc1cc(-c2cncc(-c3ccc(N4CCNCC4)cc3)c2C)cc(OC)c1OC	Caco-2	–	–	5 µM, 120 min, pH 7.4	–	Papp A-B	5.4 ×10⁻⁶ cm/s
CC(C)(C)OC(=O)NCC(=O)OC1CC2(C)C(CC(O)C3C(C4(C)CCCC(C)(C)O4)CCC32C)C2(C)CCC(OC(=O)CNC(=O)OC(C)(C)C)C(C)(C)C12 (stereo not drawn)	Hep3B	cell growth or viability, MTT	–	24 h	–	IC50	> 30 µM
CCCN(CC(=O)N(CCC)CC(=O)N(CCC)CC(=O)N(CCC)CC(=O)N(CC(=O)N(CCC)CC(=O)N(CCC)CC(=O)N(CCC)CC(=O)N(CCC)CC(=O)N(CC(N)=O)Cc1cn(CCCNC(=O)CCCOc2cccc(-c3nc4ccc(-c5nc6ccc(N7CCN(C)CC7)cc6[nH]5)cc4[nH]3)c2)nn1)Cc1cn(CCCNC(=O)CCCOc2cccc(-c3nc4ccc(-c5nc6ccc(N7CCN(C)CC7)cc6[nH]5)cc4[nH]3)c2)nn1)C(=O)CNCc1cn(CCCNC(=O)CCCOc2cccc(-c3nc4ccc(-c5nc6ccc(N7CCN(C)CC7)cc6[nH]5)cc4[nH]3)c2)nn1	C2C12	flow cytometry	–	5 µM, 14 h	–	compound fluorescence-only positive cells	44%

Compound	cell line	test	system	conditions	scale	quantity	value
CCCc1c(O)c(O)cc(C(=O)O)c1COC1OC(CO)C(O)C(O)C1O (stereo not drawn)	HeLa, SW480 and HCT-116	CCK-8	–	concentration not given, 12 h	–	cytotoxicity	not toxic
CCCCCc1ccc(S(=O)(=O)N2CC2C(=O)N(C)C)cc1 (stereo not drawn)	Balb/c 3T3 fibroblasts	cytotoxicity, neutral red uptake	DMEM with 5% FBS	24 h	–	IC50	13 ± 2 µM
CC(C)=CCc1c2c(c(O)c3c(=O)c(-c4ccc(O)cc4)coc13)CC(C(C)(C)O)O2 (stereo not drawn)	RAW264.7	cell growth or viability, MTT	–	100 µg/mL, 24 h	–	viability	7.78%
CCCN(CC(=O)N(CCC)CC(=O)N(CCC)CC(=O)N(CCC)CC(=O)N(CC(=O)N(CCC)CC(=O)N(CCC)CC(=O)N(CCC)CC(=O)N(CCC)CC(=O)N(CC(=O)N(CCC)CC(=O)N(CCC)CC(=O)N(CCC)CC(=O)N(CCC)CC(=O)N(CC(N)=O)Cc1cn(CCCNC(=O)CCCOc2cccc(-c3nc4ccc(-c5nc6ccc(N7CCN(C)CC7)cc6[nH]5)cc4[nH]3)c2)nn1)Cc1cn(CCCNC(=O)CCCOc2cccc(-c3nc4ccc(-c5nc6ccc(N7CCN(C)CC7)cc6[nH]5)cc4[nH]3)c2)nn1)Cc1cn(CCCNC(=O)CCCOc2cccc(-c3nc4ccc(-c5nc6ccc(N7CCN(C)CC7)cc6[nH]5)cc4[nH]3)c2)nn1)C(=O)CNCc1cn(CCCNC(=O)CCCOc2cccc(-c3nc4ccc(-c5nc6ccc(N7CCN(C)CC7)cc6[nH]5)cc4[nH]3)c2)nn1	C2C12	flow cytometry	–	5 µM, 48 h	–	compound fluorescence-only positive cells	90%
N=C(N)c1ccc(-c2ccc(-c3nc4ccc(C(=N)N)cc4[nH]3)[se]2)cc1	HEK293 cells	viability, resazurin reduction	–	24 h, 10% fetal bovine serum	up to	maximum non-toxic concentration	> 10 µM
CC1(C)CCN(Cc2ccc(C(=O)NC[C@]3(O)CCCN(c4cc(NCc5ccccc5)ncn4)C3)c(O)c2)CC1	Caco-2	–	–	10 µM, 90 min, basolateral to apical	–	mass recovery	92.4%
CN(C)C(=O)C1CN1S(=O)(=O)c1cccc2cc(N(C)C)ccc12 (stereo not drawn)	Balb/c 3T3 fibroblasts	cytotoxicity, neutral red uptake	DMEM with 5% FBS	24 h	–	IC50	22 ± 2 µM
CNC(=O)C(Cc1ccccc1)NC(=O)C(O)(Cc1ccccc1)CN(Cc1ccc(Br)cc1)NC(=O)C(NC(=O)OC)C(C)(C)C (stereo not drawn)	Caco-2	–	–	pH 7.4, 1% BSA in receiver	–	Papp B-to-A	53.4 ± 3.8 ×10⁻⁶ cm/s
CCCCCCc1ccc(S(=O)(=O)N2CC2C(=O)N(CC)CC)cc1 (stereo not drawn)	Balb/c 3T3 fibroblasts	cytotoxicity, neutral red uptake	DMEM with 5% FBS	24 h	–	IC50	7.1 ± 1.4 µM
COc1ccc(-n2cc(C(=O)OC3CC4(C)C(CC(O)C5C(C6(C)CCCC(C)(C)O6)CCC54C)C4(C)CCC(O)C(C)(C)C34)nn2)cc1 (stereo not drawn)	Hep3B	cell growth or viability, MTT	–	24 h	–	IC50	> 30 µM
CCCCCCCCCCCCCCCCCC(=O)O[C@@H](C(=O)O[C@H]1C[C@@]2(O)[C@@H](OC(=O)c3ccccc3)[C@@H]3[C@]4(OC(C)=O)CO[C@@H]4C[C@H](O)[C@@]3(C)C(=O)[C@H](O)C(=C1C)C2(C)C)[C@@H](NC(=O)OC(C)(C)C)c1ccccc1	DU-145	MTT	–	48 h	baseline: docetaxel, higher = less active	potency relative to docetaxel	36.5 fold
COC(=O)C1CN1S(=O)(=O)c1ccc2cccc(N(C)C)c2c1 (stereo not drawn)	Balb/c 3T3 fibroblasts	cytotoxicity, neutral red uptake	DMEM with 5% FBS	24 h	–	IC50	18 ± 3 µM
Nc1ncnc2c1c(I)cn2[C@@H]1O[C@H](CO)C[C@H]1O	MRC-5 SV2	cytotoxicity, resazurin	medium with 5% FBS	72 h	–	EC50	3.4 ± 1.3 µM
COc1ccc(/C=C\C(=O)OC2CCC3(C)C(C(O)CC4(C)C3CC(O)C3C(C5(C)CCCC(C)(C)O5)CCC34C)C2(C)C)cc1 (stereo not drawn)	Hep3B	cell growth or viability, MTT	–	24 h	–	IC50	> 30 µM
Nc1ncnc2c1c(Br)cn2[C@H]1C[C@H](O)[C@@H](CO)O1	MRC-5 SV2	cytotoxicity, resazurin	medium with 5% FBS	72 h	–	EC50	6.1 ± 0.7 µM
CC(C)CCCCC(=O)N[C@@H](CCN)C(=O)N[C@H](C(=O)N[C@@H](CCN)C(=O)N[C@H]1CCNC(=O)[C@H]([C@@H](C)O)NC(=O)[C@H](CCN)NC(=O)[C@H](CCN)NC(=O)[C@H](CC(C)C)NC(=O)[C@@H](Cc2ccccc2)NC(=O)[C@H](CCN)NC1=O)[C@@H](C)O	human red blood cells	haemolysis	–	4 h, pH 7.4, 25 °C	–	minimum haemolytic concentration	> 2000 µg/mL

A few entries again:
Compound	cell line	test	system	conditions	scale	quantity	value
CN(C)C(=O)C1CN1S(=O)(=O)c1ccc2c(C=O)c(N(C)C)ccc2c1 (stereo not drawn)	Balb/c 3T3 fibroblasts	cytotoxicity, neutral red uptake	DMEM with 5% FBS	24 h	–	IC50	5 ± 0.7 µM
COC(=O)C1CN1S(=O)(=O)c1ccc2cc(OC)ccc2c1 (stereo not drawn)	Balb/c 3T3 fibroblasts	cytotoxicity, neutral red uptake	DMEM with 5% FBS	24 h	–	IC50	150 ± 8 µM
CC(C)(C)OC(=O)N[C@@H](Cc1c[nH]c2ccccc12)C(=O)OC1CCC2(C)C(C(O)CC3(C)C2CC(O)C2C(C4(C)CCCC(C)(C)O4)CCC23C)C1(C)C (stereo partly drawn)	Hep3B	cell growth or viability, MTT	–	24 h	–	IC50	> 30 µM
CC(C)CCCCC(=O)N[C@@H](CCN)C(=O)N[C@H](C(=O)N[C@@H](CCN)C(=O)N[C@H]1CCNC(=O)[C@H]([C@@H](C)O)NC(=O)[C@H](CCN)NC(=O)[C@H](CCN)NC(=O)[C@H](CC(C)C)NC(=O)[C@@H](Cc2ccccc2)NC(=O)[C@H](CCN)NC1=O)[C@@H](C)O	human red blood cells	haemolysis	–	4 h, pH 7.4, 25 °C	–	minimum haemolytic concentration	> 2000 µg/mL
CC(C)[C@H](NC(=O)OC(C)(C)C)C(=O)OC1CCC2(C)C(C(O)CC3(C)C2CC(O)C2C(C4(C)CCCC(C)(C)O4)CCC23C)C1(C)C (stereo partly drawn)	Hep3B	cell growth or viability, MTT	–	24 h	–	IC50	> 30 µM
CC(C)=CCc1cc(-c2coc3cc(O)c(CC=C(C)C)c(O)c3c2=O)ccc1O	RAW264.7	cell growth or viability, MTT	–	100 µg/mL, 24 h	–	viability	5.55%
